# Published values of several laboratories.
# Every numbered part comes from another study and shows a few of its results, in no order.
# Chain of UniProt Q8N5S9 (whole entry, looked up): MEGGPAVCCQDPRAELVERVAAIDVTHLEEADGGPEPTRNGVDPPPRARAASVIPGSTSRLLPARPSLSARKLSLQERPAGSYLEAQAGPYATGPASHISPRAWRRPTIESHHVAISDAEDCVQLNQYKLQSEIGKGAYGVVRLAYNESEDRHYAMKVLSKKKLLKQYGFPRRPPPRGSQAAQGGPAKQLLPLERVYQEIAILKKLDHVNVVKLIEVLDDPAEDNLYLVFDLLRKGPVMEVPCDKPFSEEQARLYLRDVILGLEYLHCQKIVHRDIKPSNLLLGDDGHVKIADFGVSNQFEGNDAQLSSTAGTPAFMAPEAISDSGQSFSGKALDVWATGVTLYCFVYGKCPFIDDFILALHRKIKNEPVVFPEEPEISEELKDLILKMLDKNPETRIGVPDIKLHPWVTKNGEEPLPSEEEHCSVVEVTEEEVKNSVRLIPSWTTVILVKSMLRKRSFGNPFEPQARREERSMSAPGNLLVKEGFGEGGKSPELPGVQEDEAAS
# Chain of UniProt Q9BWU1 (whole entry, looked up): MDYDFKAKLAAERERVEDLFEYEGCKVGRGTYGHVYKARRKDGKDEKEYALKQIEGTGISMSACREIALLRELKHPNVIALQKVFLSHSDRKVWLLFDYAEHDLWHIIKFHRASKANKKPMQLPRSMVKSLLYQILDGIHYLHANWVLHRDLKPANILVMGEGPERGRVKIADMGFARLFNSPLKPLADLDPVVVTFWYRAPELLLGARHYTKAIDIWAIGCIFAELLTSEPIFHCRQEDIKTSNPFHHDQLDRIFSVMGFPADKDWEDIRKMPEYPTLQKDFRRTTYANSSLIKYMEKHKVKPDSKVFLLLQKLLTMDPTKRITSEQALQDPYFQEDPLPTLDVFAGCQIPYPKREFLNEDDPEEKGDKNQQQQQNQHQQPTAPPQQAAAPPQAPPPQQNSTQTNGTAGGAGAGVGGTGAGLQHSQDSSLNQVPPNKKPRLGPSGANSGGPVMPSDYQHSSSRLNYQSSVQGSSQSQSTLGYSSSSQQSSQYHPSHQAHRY
# Chain of UniProt O00238 (whole entry, looked up): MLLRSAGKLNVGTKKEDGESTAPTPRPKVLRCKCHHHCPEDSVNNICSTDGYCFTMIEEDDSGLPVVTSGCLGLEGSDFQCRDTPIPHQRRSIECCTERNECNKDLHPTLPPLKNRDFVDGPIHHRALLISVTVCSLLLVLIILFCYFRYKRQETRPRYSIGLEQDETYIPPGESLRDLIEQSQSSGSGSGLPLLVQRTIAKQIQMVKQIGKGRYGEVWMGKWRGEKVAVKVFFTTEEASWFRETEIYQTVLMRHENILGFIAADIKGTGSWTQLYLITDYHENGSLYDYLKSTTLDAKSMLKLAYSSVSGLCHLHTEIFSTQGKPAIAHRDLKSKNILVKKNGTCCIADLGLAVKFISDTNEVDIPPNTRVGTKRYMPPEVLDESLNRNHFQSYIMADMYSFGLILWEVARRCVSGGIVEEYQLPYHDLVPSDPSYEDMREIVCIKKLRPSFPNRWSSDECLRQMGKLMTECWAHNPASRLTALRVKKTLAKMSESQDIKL
# Chain of UniProt P37023 (whole entry, looked up): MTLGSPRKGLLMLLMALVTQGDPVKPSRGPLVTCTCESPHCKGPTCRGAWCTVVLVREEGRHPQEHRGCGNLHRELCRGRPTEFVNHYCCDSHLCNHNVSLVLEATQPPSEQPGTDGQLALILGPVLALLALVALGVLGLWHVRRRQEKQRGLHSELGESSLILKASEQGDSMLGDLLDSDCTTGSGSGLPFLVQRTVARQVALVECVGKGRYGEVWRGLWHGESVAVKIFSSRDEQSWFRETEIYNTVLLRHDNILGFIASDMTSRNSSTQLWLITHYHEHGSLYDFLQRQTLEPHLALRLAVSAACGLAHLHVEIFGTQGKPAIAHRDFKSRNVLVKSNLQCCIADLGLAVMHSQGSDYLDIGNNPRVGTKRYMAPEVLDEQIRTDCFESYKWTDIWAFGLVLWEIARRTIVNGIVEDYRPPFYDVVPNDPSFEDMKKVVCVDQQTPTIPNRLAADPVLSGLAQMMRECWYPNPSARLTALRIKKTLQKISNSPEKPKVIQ
# Chain of UniProt Q04759 (whole entry, looked up): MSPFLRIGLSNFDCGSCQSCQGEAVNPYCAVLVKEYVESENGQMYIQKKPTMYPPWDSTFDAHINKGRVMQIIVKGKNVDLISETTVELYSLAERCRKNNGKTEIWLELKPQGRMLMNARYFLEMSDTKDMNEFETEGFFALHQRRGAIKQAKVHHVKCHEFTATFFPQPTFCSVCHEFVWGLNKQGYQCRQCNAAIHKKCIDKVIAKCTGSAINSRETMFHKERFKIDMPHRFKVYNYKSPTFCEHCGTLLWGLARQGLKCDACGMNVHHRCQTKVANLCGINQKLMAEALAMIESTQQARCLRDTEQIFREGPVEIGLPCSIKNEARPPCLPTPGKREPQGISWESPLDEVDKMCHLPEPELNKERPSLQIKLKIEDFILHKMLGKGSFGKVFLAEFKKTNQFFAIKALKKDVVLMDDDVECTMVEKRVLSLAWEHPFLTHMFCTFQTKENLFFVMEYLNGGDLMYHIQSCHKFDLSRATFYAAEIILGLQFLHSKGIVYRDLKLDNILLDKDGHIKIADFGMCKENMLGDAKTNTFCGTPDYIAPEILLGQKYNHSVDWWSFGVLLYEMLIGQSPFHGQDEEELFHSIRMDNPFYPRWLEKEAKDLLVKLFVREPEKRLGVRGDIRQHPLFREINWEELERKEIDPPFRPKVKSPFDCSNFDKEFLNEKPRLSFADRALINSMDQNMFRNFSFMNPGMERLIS
# Chain of UniProt P42680 (whole entry, looked up): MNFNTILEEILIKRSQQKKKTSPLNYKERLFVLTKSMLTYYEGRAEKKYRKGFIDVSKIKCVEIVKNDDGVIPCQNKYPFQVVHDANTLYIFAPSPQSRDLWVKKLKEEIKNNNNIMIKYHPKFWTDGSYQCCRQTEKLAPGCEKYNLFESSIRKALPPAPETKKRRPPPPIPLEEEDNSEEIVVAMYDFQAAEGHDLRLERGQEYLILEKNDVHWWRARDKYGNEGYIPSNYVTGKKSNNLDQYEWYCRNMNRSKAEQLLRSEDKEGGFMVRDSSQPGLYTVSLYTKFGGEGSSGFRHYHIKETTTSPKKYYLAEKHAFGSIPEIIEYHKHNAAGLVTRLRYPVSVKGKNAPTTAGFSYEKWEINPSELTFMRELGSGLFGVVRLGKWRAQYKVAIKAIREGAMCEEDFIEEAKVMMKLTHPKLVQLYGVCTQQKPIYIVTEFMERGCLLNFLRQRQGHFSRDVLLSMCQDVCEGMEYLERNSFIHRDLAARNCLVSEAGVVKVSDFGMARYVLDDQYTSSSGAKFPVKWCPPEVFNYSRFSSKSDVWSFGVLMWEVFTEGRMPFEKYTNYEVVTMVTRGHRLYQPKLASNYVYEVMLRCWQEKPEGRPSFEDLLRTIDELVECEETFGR
# Chain of UniProt P30530 (whole entry, looked up): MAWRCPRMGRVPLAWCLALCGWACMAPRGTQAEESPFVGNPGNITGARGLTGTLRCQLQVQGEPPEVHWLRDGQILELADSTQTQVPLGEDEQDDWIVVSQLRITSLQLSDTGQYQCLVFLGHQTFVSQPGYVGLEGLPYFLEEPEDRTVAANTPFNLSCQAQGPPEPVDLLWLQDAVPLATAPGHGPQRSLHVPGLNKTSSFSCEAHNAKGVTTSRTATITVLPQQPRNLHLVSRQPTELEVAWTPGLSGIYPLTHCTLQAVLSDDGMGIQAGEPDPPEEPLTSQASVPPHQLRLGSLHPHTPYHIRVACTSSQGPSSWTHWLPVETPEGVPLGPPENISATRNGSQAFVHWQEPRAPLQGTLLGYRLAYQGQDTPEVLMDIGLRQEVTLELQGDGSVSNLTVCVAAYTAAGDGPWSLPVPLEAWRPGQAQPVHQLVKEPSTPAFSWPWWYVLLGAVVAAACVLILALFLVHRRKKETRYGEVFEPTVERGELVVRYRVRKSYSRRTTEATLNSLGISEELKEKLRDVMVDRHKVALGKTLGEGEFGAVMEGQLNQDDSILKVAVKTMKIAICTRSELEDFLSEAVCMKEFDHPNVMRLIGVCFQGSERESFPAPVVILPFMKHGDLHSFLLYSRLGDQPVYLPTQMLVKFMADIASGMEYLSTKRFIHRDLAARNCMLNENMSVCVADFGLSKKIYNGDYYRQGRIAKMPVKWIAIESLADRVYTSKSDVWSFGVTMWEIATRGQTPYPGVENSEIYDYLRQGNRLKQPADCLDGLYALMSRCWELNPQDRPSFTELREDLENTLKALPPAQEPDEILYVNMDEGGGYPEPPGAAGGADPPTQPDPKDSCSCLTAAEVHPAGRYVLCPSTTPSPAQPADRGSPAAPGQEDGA
# Chain of UniProt Q9P0L2 (whole entry, looked up): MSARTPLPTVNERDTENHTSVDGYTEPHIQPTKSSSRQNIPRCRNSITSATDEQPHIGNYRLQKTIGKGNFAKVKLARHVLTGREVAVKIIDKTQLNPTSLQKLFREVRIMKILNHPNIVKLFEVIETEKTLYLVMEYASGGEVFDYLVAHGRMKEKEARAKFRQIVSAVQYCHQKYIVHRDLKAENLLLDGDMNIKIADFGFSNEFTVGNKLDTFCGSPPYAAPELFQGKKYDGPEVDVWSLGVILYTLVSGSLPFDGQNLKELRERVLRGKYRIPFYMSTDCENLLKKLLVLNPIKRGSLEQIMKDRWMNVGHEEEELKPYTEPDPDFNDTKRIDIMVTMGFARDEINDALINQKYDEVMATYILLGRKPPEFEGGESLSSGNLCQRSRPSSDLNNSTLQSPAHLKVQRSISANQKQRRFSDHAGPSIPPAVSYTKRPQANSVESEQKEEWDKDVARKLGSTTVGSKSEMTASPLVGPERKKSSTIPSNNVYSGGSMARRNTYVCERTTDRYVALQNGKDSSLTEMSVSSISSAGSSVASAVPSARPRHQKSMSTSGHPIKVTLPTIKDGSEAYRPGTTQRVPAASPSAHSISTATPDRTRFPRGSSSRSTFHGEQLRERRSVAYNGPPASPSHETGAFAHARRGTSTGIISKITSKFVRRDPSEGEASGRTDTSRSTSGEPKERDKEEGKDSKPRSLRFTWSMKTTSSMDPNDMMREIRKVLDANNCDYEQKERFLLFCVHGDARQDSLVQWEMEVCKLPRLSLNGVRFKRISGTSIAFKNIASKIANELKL

# Block 1 — tested at: 1 µM
# SMILES: CNC(=O)Nc1ccc2c(c1)CC[C@@]21OC(=O)N(CC(=O)N(Cc2ccc(F)cc2)[C@@H](C)C(F)(F)F)C1=O
target,assay,remaining binding [%]
"CDK19 (Homo sapiens, UniProt Q9BWU1)",competition binding,96
"STK11 (Homo sapiens, UniProt Q15831)","cell-free assay, competition with immobilised ligand",100
"EGFR (Homo sapiens, UniProt P00533, L858R)","cell-free assay, competition with immobilised ligand",96
"AXL (Homo sapiens, UniProt P30530)","binding, competition with immobilised ligand",90
"CDK13 (Homo sapiens, UniProt Q14004)","cell-free assay, competition with immobilised ligand",96
"MAP3K3 (Homo sapiens, UniProt Q99759)","cell-free assay, competition with immobilised ligand",86
"BMPR1B (Homo sapiens, UniProt O00238)","cell-free assay, competition with immobilised ligand",82
"EGFR (Homo sapiens, UniProt P00533, del747-750/T751S)","cell-free assay, competition with immobilised ligand",90

# Block 2 — Molecule: HSPD1 (Homo sapiens, UniProt P10809); technique: cross-linking MS; medium: cells; with: BSPNO
partner,cross-linked residues
"LRRC7 (Homo sapiens, UniProt Q96NW7)",K58 to K604
"PDRG1 (Homo sapiens, UniProt Q9NUG6)",K58 to K36
"CACNA1S (Homo sapiens, UniProt Q13698)",K58 to K162
"ZMYM1 (Homo sapiens, UniProt Q5SVZ6)",K58 to K551
"WDR35 (Homo sapiens, UniProt Q9P2L0)",K133 to M1

# Block 3 — effect on: enzyme activity; mode: inhibitor; tested at: 0.5 µM; reference: control
# Structure (SMILES): Cc1ccc(NC(=O)c2ccc(CN3CCN(C)CC3)cc2)cc1Nc1nccc(-c2cccnc2)n1
target,remaining activity
"ACVRL1 (Homo sapiens, UniProt P37023)",106%
"DYRK1A (Homo sapiens, UniProt Q13627)",103%
"CSNK1D (Homo sapiens, UniProt P48730)",98%
"YES1 (Homo sapiens, UniProt P07947)",88.6%
"TEC (Homo sapiens, UniProt P42680)",94.9%
"MARK1 (Homo sapiens, UniProt Q9P0L2)",74.8%
"MAP3K20 (Homo sapiens, UniProt Q9NYL2)",98.2%
"CAMKK1 (Homo sapiens, UniProt Q8N5S9)",96.4%
"SIK2 (Homo sapiens, UniProt Q9H0K1)",100%
"PAK5 (Homo sapiens, UniProt Q9P286)",97%
"PAK6 (Homo sapiens, UniProt Q9NQU5)",112%
"FLT1 (Homo sapiens, UniProt P17948)",98.3%
"TYRO3 (Homo sapiens, UniProt Q06418)",93.7%
"SRPK1 (Homo sapiens, UniProt Q96SB4)",99.5%
"PRKCQ (Homo sapiens, UniProt Q04759)",101%
"MELK (Homo sapiens, UniProt Q14680)",89.2%

# Block 4 — host: human; medium: microsomes or S9; tested at: 2 µM; time: 0.5 h
Structure (SMILES),remaining compound [%]
CN(CCN1CCCCC1)C(=O)c1c2c(nn1C)CCCC2,80.7
CC(C)N(C(=O)CO/C(=C(/c1ccccc1)S(=O)(=O)c1ccccc1)c1ccccc1)c1ccccc1,60.7
COc1ccc(F)cc1-n1c(=O)[nH]c2c(c1=O)CCC2,80.3
O=C(NCc1ccccc1)c1cnc2ccc(S(=O)(=O)Nc3ccc4c(c3)OCCO4)cc2c1O,4.91
CNC(=O)N1CCc2cc(S(=O)(=O)Nc3ccc(Cl)cc3)ccc21,52.5
Cc1cc(O)cc(NS(=O)(=O)c2cnn3c2OCC(C)(C)C3)c1,> 100

# Mixed results
Structure (SMILES),system,quantity,result
CCOC(=O)[C@@H]1CSCC(=O)N[C@H](CC)C(=O)N(C)[C@@H](C)C(=O)N[C@H](CC(C)C)C(=O)N2CCC[C@@H]2C(=O)N(CC(C)C)CC(=O)N[C@@H](CC(C)C)C(=O)N(C)[C@@H](C)C(=O)N[C@@H](CC(C)C)C(=O)N1C,hydrocarbon/water,logD,0.789
